Measured values pooled from the literature.
“And” joins repeats or separate records; there may be more than shown. ± gives the spread as reported.
MAP2K1: MAP2K1 (Homo sapiens, UniProt Q02750)
MAP1LC3B: MAP1LC3B fragment (Homo sapiens)
SERPING1: SERPING1 111-500 (Homo sapiens, UniProt P05155)
UniProt P05155, sequence (whole entry, looked up): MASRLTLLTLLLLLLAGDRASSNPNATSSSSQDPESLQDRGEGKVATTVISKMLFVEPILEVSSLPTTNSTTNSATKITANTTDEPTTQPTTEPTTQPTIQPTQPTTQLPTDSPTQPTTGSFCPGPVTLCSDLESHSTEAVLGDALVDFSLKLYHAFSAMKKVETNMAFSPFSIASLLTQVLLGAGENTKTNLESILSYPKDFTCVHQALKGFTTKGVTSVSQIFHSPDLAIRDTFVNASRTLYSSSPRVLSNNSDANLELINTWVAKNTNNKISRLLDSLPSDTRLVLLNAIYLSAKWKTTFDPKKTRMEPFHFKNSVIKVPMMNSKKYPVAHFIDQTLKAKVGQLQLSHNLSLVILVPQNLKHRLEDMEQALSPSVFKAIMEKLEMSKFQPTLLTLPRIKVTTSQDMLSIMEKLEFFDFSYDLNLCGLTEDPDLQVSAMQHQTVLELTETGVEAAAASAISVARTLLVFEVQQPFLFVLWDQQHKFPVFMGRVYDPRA
IL13: IL13 fragment (Homo sapiens)
B1: BRAF kinase 448-723 K723G/P722S/S720E/L716E/S713E/Q709R/L706S/A688R/Y673S/R662E/K630S/V600E/L588N/Q562R (Homo sapiens, UniProt P15056); sequence looked up; chain DDWEIPDGQITVGQRIGSGSFGTVYKGKWHGDVAVKMLNVTAPTPQQLQAFKNEVGVLRKTRHVNILLFMGYSTKPQLAIVTQWCEGSSLYHHLHASETKFEMKKLIDIARQTARGMDYLHAKSIIHRDLKSNNIFLHEDNTVKIGDFGLATEKSRWSGSHQFEQLSGSILWMAPEVIRMQDSNPYSFQSDVYAFGIVLYELMTGQLPYSNINNEDQIIFMVGRGSLSPDLSKVRSNCPKRMKRLMAECLKKKRDERPSFPRILAEIEELARELSG
B2: CDC48A 1-190 (Arabidopsis thaliana, UniProt P54609); chain MSTPAESSDSKSKKDFSTAILERKKSPNRLVVDEAINDDNSVVSLHPATMEKLQLFRGDTILIKGKKRKDTVCIALADETCEEPKIRMNKVVRSNLRVRLGDVISVHQCPDVKYGKRVHILPVDDTVEGVTGNLFDAYLKPYFLEAYRPVRKGDLFLVRGGMRSVEFKVIETDPAEYCVVAPDTEIFCEG
B3: EFR3A 721-791 (Homo sapiens, UniProt Q14156); chain SNTEEITFEALKKAIDTSGMEEQEKEKRRLVIEKFQKAPFEEIAAQCESKANLLHDRLAQILELTIRPPPS
B4: BRAF kinase 448-723 K723G/P722S/S720E/L716E/S713E/Q709R/L706S/A688R/Y673S/N661D/K630S/V600E/L588N/Q562R (Homo sapiens, UniProt P15056); sequence looked up; chain DDWEIPDGQITVGQRIGSGSFGTVYKGKWHGDVAVKMLNVTAPTPQQLQAFKNEVGVLRKTRHVNILLFMGYSTKPQLAIVTQWCEGSSLYHHLHASETKFEMKKLIDIARQTARGMDYLHAKSIIHRDLKSNNIFLHEDNTVKIGDFGLATEKSRWSGSHQFEQLSGSILWMAPEVIRMQDSNPYSFQSDVYAFGIVLYELMTGQLPYSNINDRDQIIFMVGRGSLSPDLSKVRSNCPKRMKRLMAECLKKKRDERPSFPRILAEIEELARELSG
B5: TGM4 (Heligmosomoides polygyrus); chain GCMPFSDETASYKYLTERSRNDETPAQNDSSGAYPDHTHVKRFCKGLHGEEKTGRYVGICLGSEWVYYQGVQECQDRRCSPLPTNDTVTYEYLKATVNAGINFNITVHPDASGKYPELTYIKRICKNFPADSKVQGHIIGMCYNAEWRFSSTPTCPPSGCPPLPDDGIVFYEYYGYAGNRHTVGRAVSKDSSGNYPPQTHARRRCRALSQKADPGEFVGICYKSGTTGESHWDYYSHIRKCPDPRCKPLETNVSVHYEYFTMTNETGRKEGTPAEVDKGGKYPQHTCVRKFCDKSPYTCSVKGPIFGECLDGQWNFTALDECLNARGCNSDDLFDKLGFEGVMVREEEGSDSYKDDFVRFYATGSKVNAECKGKTVQLECSDGEWHDPGTKTVHRCTKEGIRAL
B6: TEPSIN M474S/E475S/V477S (Homo sapiens, UniProt Q96N21); chain MAAAPPLRDRLSFLHRLPILLKGTSDDDVPCPGYLFEEIAKISHESPGSSQCLLEYLLSRLHSSSGHGKLKVLKILLYLCSHGSSFFLLILKRNSAFIQEAAAFAGPPDPLHGNSLYQKVRAAAQDLGSTLFSDTVLPLAPSQPLGTPPATGMGSQARPHSTLQGFGYSKEHGRTAVRHQPGQAGGGWDELDSGPSSQNSSQNSDLSRVSDSGSHSGSDSHSGASREPGDLAERVEVVALSDCQQELSLVRTVTRGPRAFLSREEAQHFIKACGLLNCEAVLQLLTCHLRGTSECTQLRALCAIASLGSSDLLPQEHILLRTRPWLQELSMGSPGPVTNKATKILRHFEASCGQLSPARGTSAEPGPTAALPGPSDLLTDAVPLPGSQVFLQPLSSTPVSSRSPAPSSGMPSSPVPTPPPDASPIPAPGDPSEAEARLAESRRWRPERIPGGTDSPKRGPSSCAWSRDSLFAGSSLSACPRLVGAGAAAGESCPDAPRAPQTSSQRTAAKEPPGSEPSAFAFLNA
B7: C1S 438-688 S632A (Homo sapiens, UniProt P09871); chain IIGGSDADIKNFPWQVFFDNPWAGGALINEYWVLTAAHVVEGNREPTMYVGSTSVQTSRLAKSKMLTPEHVFIHPGWKLLEVPEGRTNFDNDIALVRLKDPVKMGPTVSPICLPGTSSDYNLMDGDLGLISGWGRTEKRDRAVRLKAARLPVAPLRKCKEVKVEKPTADAEAYVFTPNMICAGGEKGMDSCKGDAGGAFAVQDPNDKTKFYAAGLVSWGPQCGTYGLYTRVKNYVDWIMKTMQENSTPRED
B8: PUX5 301-421 (Arabidopsis thaliana, UniProt Q7Y175); chain KNPFQGVGRTLGASGSGSSSAPQASSAPMNVAPAPSRGLVVDPAAPTTSIQLRLADGTRLVSRFNNHHTVRDVRGFIDASRPGGSKEYQLLTMGFPPKQLTELDQTIEQAGIANAVVIQKF
B9: IgG L:G68E; V domains shown; VH QVQLVQSGAEVKKPGASVKVSCKASGYTFTNYGLSWVRQAPGQGLEWMGWISANNGDTNYGQEFQGRVTMTTDTSTSTAYMELRSLRSDDTAVYYCARDSSSSWARWFFDLWGRGTLVTVSS; VL SYVLTQPPSVSVAPGKTARITCGGNIIGSKLVHWYQQKPGQAPVLVIYDDGDRPSGIPERFSGSNSENTATLTISRVEAGDEADYYCQVWDTGSDPVVFGGGTKLTVL
B10: ANGPT1 283-498 A451D (Homo sapiens, UniProt Q15389); chain FRDCADVYQAGFNKSGIYTIYINNMPEPKKVFCNMDVNGGGWTVIQHREDGSLDFQRGWKEYKMGFGNPSGEYWLGNEFIFAITSQRQYMLRIELMDWEGNRAYSQYDRFHIGNEKQNYRLYLKGHTGTAGKQSSLILHGADFSTKDADNDNCMCKCALMLTGGWWFDDCGPSNLNGMFYTAGQNHGKLNGIKWHYFKGPSYSLRSTTMMIRPLDF
B11: BRAF kinase 448-723 K723G/P722S/S720E/L716E/S713E/Q709R/L706S/A688R/Y673S/F667Y/K630S/V600E/L588N/Q562R (Homo sapiens, UniProt P15056); sequence looked up; chain DDWEIPDGQITVGQRIGSGSFGTVYKGKWHGDVAVKMLNVTAPTPQQLQAFKNEVGVLRKTRHVNILLFMGYSTKPQLAIVTQWCEGSSLYHHLHASETKFEMKKLIDIARQTARGMDYLHAKSIIHRDLKSNNIFLHEDNTVKIGDFGLATEKSRWSGSHQFEQLSGSILWMAPEVIRMQDSNPYSFQSDVYAFGIVLYELMTGQLPYSNINNRDQIIYMVGRGSLSPDLSKVRSNCPKRMKRLMAECLKKKRDERPSFPRILAEIEELARELSG
B12: C1s CCP2-SP domains; glycosylated; chain 1 VDCGIPESIENGKVEDPESTLFGSVIRYTCEEPYYYMENGGGGEYHCAGNGSWVNEVLGPELPKCVPVCGVPREPFEEKQR; chain 2 IIGGSDADIKNFPWQVFFDNPWAGGALINEYWVLTAAHVVEGNREPTMYVGSTSVQTSRLAKSKMLTPEHVFIHPGWKLLEVPEGRTNFDNDIALVRLKDPVKMGPTVSPICLPGTSSDYNLMDGDLGLISGWGRTEKRDRAVRLKAARLPVAPLRKCKEVKVEKPTADAEAYVFTPNMICAGGEKGMDSCKGDAGGAFAVQDPNDKTKFYAAGLVSWGPQCGTYGLYTRVKNYVDWIMKTMQENSTPRED
B13: IgG L:G68W; V domains shown; VH QVQLVQSGAEVKKPGASVKVSCKASGYTFTNYGLSWVRQAPGQGLEWMGWISANNGDTNYGQEFQGRVTMTTDTSTSTAYMELRSLRSDDTAVYYCARDSSSSWARWFFDLWGRGTLVTVSS; VL SYVLTQPPSVSVAPGKTARITCGGNIIGSKLVHWYQQKPGQAPVLVIYDDGDRPSGIPERFSGSNSWNTATLTISRVEAGDEADYYCQVWDTGSDPVVFGGGTKLTVL
B14: TEPSIN R226A/E227A/D230A/E233A/R234A/E236A (Homo sapiens, UniProt Q96N21); chain MAAAPPLRDRLSFLHRLPILLKGTSDDDVPCPGYLFEEIAKISHESPGSSQCLLEYLLSRLHSSSGHGKLKVLKILLYLCSHGSSFFLLILKRNSAFIQEAAAFAGPPDPLHGNSLYQKVRAAAQDLGSTLFSDTVLPLAPSQPLGTPPATGMGSQARPHSTLQGFGYSKEHGRTAVRHQPGQAGGGWDELDSGPSSQNSSQNSDLSRVSDSGSHSGSDSHSGASAAPGALAAAVAVVALSDCQQELSLVRTVTRGPRAFLSREEAQHFIKACGLLNCEAVLQLLTCHLRGTSECTQLRALCAIASLGSSDLLPQEHILLRTRPWLQELSMGSPGPVTNKATKILRHFEASCGQLSPARGTSAEPGPTAALPGPSDLLTDAVPLPGSQVFLQPLSSTPVSSRSPAPSSGMPSSPVPTPPPDASPIPAPGDPSEAEARLAESRRWRPERIPGGTDSPKRGPSSCAWSRDSLFAGMELVACPRLVGAGAAAGESCPDAPRAPQTSSQRTAAKEPPGSEPSAFAFLNA
B15: lat-1 32-136 (Caenorhabditis elegans, UniProt G5EDW2); chain TTDESGTISHTICDGEAAELSCPAGKVISIVLGNYGRFSVAVCLPDNDIVPSNINCQNHKTKSILEKKCNGDSMCYFTVDKKTFTEDPCPNTPKYLEVKYNCVVP
UniProt P38646, sequence (whole entry, unmodified, looked up): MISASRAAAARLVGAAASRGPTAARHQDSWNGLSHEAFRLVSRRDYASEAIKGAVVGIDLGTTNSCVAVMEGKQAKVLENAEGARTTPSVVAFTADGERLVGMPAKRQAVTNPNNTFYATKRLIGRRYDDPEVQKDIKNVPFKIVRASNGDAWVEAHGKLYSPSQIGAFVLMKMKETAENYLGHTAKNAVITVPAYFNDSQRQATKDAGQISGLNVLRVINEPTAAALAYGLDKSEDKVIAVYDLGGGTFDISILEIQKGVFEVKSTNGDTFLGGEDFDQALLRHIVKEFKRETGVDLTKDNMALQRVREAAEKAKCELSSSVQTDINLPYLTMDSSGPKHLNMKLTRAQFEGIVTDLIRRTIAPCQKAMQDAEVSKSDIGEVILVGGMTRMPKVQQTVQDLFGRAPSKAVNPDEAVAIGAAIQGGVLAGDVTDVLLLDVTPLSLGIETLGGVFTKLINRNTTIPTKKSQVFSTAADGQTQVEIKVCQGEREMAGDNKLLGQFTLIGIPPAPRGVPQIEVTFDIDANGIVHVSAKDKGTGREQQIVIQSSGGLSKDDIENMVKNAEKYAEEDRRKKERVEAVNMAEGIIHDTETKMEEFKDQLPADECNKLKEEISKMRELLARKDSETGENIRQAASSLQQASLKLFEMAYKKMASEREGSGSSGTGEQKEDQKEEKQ
UniProt P20827, sequence (whole entry, looked up): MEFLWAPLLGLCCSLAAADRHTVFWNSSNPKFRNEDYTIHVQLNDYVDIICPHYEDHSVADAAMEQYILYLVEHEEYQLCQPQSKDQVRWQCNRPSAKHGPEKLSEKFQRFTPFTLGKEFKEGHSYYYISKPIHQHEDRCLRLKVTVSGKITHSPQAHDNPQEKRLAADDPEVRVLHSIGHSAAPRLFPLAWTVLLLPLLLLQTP
UniProt Q02763, sequence (whole entry, looked up): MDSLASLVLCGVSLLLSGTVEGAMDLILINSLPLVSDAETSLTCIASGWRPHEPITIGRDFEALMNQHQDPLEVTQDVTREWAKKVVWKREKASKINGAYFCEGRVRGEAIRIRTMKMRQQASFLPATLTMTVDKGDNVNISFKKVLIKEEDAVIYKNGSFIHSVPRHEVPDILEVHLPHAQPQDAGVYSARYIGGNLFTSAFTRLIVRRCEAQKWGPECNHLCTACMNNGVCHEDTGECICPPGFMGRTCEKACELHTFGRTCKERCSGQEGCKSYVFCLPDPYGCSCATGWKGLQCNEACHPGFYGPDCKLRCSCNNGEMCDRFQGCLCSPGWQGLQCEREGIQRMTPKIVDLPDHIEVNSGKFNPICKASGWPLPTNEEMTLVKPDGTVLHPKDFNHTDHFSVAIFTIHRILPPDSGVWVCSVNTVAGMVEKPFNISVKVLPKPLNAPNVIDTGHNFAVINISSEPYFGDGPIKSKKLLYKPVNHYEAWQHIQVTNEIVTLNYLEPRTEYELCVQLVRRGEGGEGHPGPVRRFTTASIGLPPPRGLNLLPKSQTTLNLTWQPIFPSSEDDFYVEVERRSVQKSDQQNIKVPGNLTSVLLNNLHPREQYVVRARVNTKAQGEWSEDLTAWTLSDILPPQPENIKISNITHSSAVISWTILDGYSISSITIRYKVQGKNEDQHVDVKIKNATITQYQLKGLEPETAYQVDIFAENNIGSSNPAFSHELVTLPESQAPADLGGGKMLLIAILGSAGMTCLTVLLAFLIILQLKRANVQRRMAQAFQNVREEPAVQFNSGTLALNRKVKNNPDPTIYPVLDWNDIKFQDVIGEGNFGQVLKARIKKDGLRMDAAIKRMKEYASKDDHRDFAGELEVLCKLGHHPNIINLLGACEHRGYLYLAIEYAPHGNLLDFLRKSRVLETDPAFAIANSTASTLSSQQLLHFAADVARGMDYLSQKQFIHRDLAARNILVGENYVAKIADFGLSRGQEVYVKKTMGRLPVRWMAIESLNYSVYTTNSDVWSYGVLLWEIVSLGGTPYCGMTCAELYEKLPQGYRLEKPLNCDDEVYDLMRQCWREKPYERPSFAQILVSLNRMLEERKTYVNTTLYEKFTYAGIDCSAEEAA
UniProt Q9Z1P8, sequence (whole entry, looked up): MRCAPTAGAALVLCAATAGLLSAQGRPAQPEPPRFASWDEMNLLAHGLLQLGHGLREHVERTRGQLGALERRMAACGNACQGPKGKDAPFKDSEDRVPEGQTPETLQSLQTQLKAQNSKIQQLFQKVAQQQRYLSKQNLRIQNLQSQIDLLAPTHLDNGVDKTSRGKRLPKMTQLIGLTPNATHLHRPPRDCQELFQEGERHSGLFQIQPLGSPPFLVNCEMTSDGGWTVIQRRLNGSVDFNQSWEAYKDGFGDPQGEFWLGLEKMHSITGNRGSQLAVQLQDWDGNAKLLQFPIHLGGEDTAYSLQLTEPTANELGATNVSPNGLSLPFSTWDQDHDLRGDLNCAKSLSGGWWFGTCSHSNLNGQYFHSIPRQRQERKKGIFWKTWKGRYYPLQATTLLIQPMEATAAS
UniProt P48356, sequence (whole entry, unmodified, looked up): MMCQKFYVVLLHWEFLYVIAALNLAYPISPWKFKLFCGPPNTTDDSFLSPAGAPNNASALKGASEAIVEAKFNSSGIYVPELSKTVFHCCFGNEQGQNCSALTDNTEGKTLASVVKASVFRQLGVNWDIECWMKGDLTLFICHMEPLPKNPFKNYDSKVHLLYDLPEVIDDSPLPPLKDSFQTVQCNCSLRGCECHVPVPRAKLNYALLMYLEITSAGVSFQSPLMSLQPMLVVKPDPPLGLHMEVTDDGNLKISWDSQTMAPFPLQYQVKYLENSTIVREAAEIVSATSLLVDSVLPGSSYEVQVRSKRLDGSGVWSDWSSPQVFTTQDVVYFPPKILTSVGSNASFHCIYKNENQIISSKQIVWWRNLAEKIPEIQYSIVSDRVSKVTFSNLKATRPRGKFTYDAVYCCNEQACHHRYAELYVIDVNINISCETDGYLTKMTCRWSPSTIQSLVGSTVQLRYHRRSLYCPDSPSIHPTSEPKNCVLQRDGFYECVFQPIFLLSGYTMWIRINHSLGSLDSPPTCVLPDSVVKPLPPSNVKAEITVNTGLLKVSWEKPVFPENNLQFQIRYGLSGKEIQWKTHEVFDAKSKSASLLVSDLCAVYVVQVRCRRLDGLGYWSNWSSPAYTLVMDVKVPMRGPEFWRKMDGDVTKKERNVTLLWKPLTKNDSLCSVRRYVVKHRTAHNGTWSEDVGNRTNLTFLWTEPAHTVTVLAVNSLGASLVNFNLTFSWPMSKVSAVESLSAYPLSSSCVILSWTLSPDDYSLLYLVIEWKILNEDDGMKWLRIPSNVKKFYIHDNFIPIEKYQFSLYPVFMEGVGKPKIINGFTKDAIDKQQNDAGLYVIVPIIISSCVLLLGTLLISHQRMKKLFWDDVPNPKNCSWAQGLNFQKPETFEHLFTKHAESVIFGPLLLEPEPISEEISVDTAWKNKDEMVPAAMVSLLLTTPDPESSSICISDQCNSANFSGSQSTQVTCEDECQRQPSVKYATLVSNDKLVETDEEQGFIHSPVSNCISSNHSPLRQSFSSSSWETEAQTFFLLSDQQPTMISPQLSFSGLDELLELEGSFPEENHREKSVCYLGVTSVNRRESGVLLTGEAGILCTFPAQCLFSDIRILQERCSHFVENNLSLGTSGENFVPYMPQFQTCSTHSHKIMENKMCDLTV
UniProt P97287, sequence (whole entry, looked up): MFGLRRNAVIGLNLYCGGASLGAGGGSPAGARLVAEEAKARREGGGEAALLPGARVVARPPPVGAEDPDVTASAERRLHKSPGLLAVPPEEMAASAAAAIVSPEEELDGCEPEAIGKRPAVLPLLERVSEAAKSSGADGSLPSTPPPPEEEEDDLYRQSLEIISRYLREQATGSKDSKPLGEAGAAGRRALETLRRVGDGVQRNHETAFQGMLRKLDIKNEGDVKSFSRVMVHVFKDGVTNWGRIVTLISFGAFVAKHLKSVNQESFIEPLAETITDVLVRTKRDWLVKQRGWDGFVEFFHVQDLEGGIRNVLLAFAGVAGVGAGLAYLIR

`B1` has a koff of 0.00518 s⁻¹ (MAP2K1; BLI).
`B2 (CDC48A 1-190)` gave a koff of 0.13 ± 0.01 s⁻¹ (PUX5 (Arabidopsis thaliana, UniProt Q7Y175); BLI; 25 °C).
`B3 (EFR3A 721-791)` has a koff of 0.000258 s⁻¹ (TTC7A/FAM126A FAM126A 1-308; BLI).
`B4` has a koff of 0.00213 s⁻¹ (MAP2K1; BLI).
`CALLLSAPRR (GOT2 (Gallus gallus); fluorescein label)` gave a koff of 0.0075 s⁻¹ (HSPA9 47-600 (Homo sapiens, UniProt P38646); FP; peptide).
For `ANGPTL4 (Mus musculus, UniProt Q9Z1P8)`, the koff was 0.002 s⁻¹ (Lepr 22-839 (Mus musculus, UniProt P48356); SPR).
With `ptsH fragment (Escherichia coli) (sequence not shown)` the koff was 10200 s⁻¹ (ptsI fragment (Escherichia coli); NMR relaxation dispersion; with BSA).
The koff of `EPHA2 fragment, auto-phosphorylated (Homo sapiens)` is reported as 0.00933 s⁻¹ (EFNA1 (Homo sapiens, UniProt P20827); BLI; apparent).
With `B5 (TGM4)` the koff was 0.84 s⁻¹ (TGFBR2 extracellular domain (Homo sapiens); SPR).
With `B6 (TEPSIN M474S/E475S/V477S)` the koff was 0.1 s⁻¹ and 0.092 s⁻¹ and 0.097 s⁻¹ and 0.099 s⁻¹ (MAP1LC3B; BLI).
With `EEEWAREIGAQLRRAADDLNAQYERRR (PUMA residues 130-156 M144A; N-acetyl, C-terminal amide)` the koff was 0.0043 ± 0.0005 s⁻¹ (Mcl1 152-308 (Mus musculus, UniProt P97287); SPR; peptide).
`B7 (C1S 438-688 S632A)` has a koff of 0.0874 s⁻¹ (SERPING1; SPR; together with: Ca2+).
`B8 (PUX5 301-421)` has a koff of 0.09 ± 0.01 s⁻¹ (CDC48A 1-190 (Arabidopsis thaliana, UniProt P54609); BLI; 25 °C).
`B9 (IgG L:G68E)` has a koff of 0.0027 s⁻¹ (IL13; SPR; antibody).
With `B10 (ANGPT1 283-498 A451D)` the koff was 0.102 s⁻¹ (TEK 23-748 (Homo sapiens, UniProt Q02763); SPR).
With `B11` the koff was 0.00055 s⁻¹ (MAP2K1; BLI).
`KKVTFGLNRNMTAEFKKTDKSILVSPTGPSRVAFDPEQKPLHGVLK (RRP1B 682-727 (Homo sapiens, UniProt Q14684))` gave a koff of 0.012 s⁻¹ (PPP1CA 7-330 Q20R (Homo sapiens, UniProt P62136); SPR).
With `B12 (C1s CCP2-SP domains)` the koff was 0.163 s⁻¹ (SERPING1; SPR; together with: Ca2+).
`B13 (IgG L:G68W)` has a koff of 0.00038 s⁻¹ (IL13; SPR; antibody).
For `MBL-A mature, hydroxylysine, hydroxyproline in collagen (Rattus norvegicus, UniProt P19999)`, the koff was 0.00153 s⁻¹ (C1r/C1s full-length tetramer (Homo sapiens); SPR; together with: CaCl2 140 mM).
With `B14` the koff was 0.083 s⁻¹ and 0.076 s⁻¹ and 0.079 s⁻¹ and 0.078 s⁻¹ (MAP1LC3B; BLI).
With `B15 (lat-1 32-136)` the koff was 0.31 s⁻¹ (tol-1 extracellular region (Caenorhabditis elegans); SPR).
`B3 (EFR3A 721-791)` has a koff of 0.000258 s⁻¹ (TTC7A/FAM126A 1-308; BLI).

For quick reference, copied from above:
With `ptsH fragment (Escherichia coli) (sequence not shown)` the koff was 10200 s⁻¹ (ptsI fragment (Escherichia coli); NMR relaxation dispersion; with BSA).
The koff of `EPHA2 fragment, auto-phosphorylated (Homo sapiens)` is reported as 0.00933 s⁻¹ (EFNA1 (Homo sapiens, UniProt P20827); BLI; apparent).
`B4` has a koff of 0.00213 s⁻¹ (MAP2K1; BLI).
With `EEEWAREIGAQLRRAADDLNAQYERRR (PUMA residues 130-156 M144A; N-acetyl, C-terminal amide)` the koff was 0.0043 ± 0.0005 s⁻¹ (Mcl1 152-308 (Mus musculus, UniProt P97287); SPR; peptide).
